Results of several laboratories.
Every numbered part comes from another study and shows a few of its results, in no order. Changes are numbered by the printed parent chain.

Sample 1 — method: DHFR PCA, deep sequencing; medium: yeast; with: (+)-ABA 0 µM; reference: wild-type fitted maximum; reading: higher = stronger binding
Target: ABI1, truncated, D143A, DHFR fusion (Arabidopsis thaliana)
Setting: methotrexate growth selection, single substitutions
Starting sequence: PYL1, truncated, DHFR fusion (Arabidopsis thaliana); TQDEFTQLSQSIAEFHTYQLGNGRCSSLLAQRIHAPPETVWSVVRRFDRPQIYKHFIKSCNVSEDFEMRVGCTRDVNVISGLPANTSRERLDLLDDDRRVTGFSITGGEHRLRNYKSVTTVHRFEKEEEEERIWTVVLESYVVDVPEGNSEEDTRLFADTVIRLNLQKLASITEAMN; partner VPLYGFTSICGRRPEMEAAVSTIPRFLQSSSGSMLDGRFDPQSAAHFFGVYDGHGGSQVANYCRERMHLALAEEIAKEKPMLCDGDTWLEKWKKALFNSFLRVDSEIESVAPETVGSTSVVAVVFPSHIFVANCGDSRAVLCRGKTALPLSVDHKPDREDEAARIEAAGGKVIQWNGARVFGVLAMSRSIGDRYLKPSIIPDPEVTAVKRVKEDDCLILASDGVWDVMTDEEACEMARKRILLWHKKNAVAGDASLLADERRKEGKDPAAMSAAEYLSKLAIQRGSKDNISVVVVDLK
Variant	relative binding score [%]
T73P	1.35
Y18R	1.57
E130S	30.6
I12S	-1.89
E151Y	2.38
V143S	-5.22
T160M	1.7
Q51W	8.28
D144R	-1.08
F5M	40.1
R46Y	4.22
R98I	-0.44
V100M	8.13
G81M	9.27
L28G	1.84

Sample 2 — method: protein-binding microarray; form: double-stranded DNA, one strand shown; medium: in vitro; concentration: 2200 nM top; setting: 60-bp whole probe; with: salmon DNA 0.4 mg/ml; reference: random background probes; reading: higher = stronger binding; constant ends, left off below: GCCTAGCAC … GTCTTGATTCGCTTGACGCTGCTG
Target: Interferon regulatory factor 7, full length, phosphomimetic (IRF7, Homo sapiens, UniProt Q92985, residues 1-503, S471D/S472D/S475D/S476D/S477D/S483D/S484D/S487D)
UniProt Q92985, sequence (whole entry, unmodified, looked up): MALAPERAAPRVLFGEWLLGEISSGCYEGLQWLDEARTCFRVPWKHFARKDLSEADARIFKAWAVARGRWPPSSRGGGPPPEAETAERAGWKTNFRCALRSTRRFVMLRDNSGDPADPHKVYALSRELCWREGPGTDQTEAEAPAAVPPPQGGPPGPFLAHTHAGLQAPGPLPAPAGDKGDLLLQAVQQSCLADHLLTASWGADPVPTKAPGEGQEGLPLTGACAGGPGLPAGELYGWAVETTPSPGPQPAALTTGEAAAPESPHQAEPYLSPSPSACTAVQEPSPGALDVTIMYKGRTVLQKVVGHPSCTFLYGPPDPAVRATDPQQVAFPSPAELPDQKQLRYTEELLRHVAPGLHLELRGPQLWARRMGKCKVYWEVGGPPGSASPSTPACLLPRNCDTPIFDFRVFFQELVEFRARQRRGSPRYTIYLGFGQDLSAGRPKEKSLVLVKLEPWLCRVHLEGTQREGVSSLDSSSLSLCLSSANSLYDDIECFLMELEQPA
Oligonucleotide	fitted relative affinity [z-score]
TTAGGTATCGTACTGGGTTAGTGCTAG	0.538
CTGTCATCATCGTTCCCAGCGTGCTAG	1.58
TTAGGACTGGGTCTCGATTAGTGCTAG	-0.211
TATGAAATGGAAGTTTAGGGGTGCTAG	-0.393
GACGGACTGGGCCTGGGGACGTGCTAG	-1.07
GACGGACTGCTTATTCTGACGTGCTAG	0.227
TTAGGTCCCGGTCTCGGTTAGTGCTAG	0.432
TCAGGTTCCCTTTTCCTTTAGTGCTAG	3.9
TCACTTCCCCATCTTGTACTGTGCTAG	3.36
GACGGTATCGGGACTGGCGACGTGCTA	-0.428
GACGGTATTGGTATCGGGACGTGCTAG	0.0587
TCTCTTTCCAACTCTGTTTTCGTGCTA	3.72
GAGGATTTCGGGTATCGAGACGTGCTA	2.07
GACGAACTGGGGTTTCGAGACGTGCTA	1.37
GACGATATCGGGACTGGGGACGTGCTA	-0.409

Sample 3 — method: competition protein-binding microarray; form: double-stranded DNA, one strand shown; medium: in vitro; concentration: 2 µM; with: Cbf1 competitor, 0.05 µM; reading: higher = stronger binding
Target: Phosphate system positive regulatory protein PHO4, full length, GST-tagged (PHO4, Saccharomyces cerevisiae, UniProt P07270, residues 1-312)
Setting: whole 60-bp probe, lowest competitor level
Construct (chain): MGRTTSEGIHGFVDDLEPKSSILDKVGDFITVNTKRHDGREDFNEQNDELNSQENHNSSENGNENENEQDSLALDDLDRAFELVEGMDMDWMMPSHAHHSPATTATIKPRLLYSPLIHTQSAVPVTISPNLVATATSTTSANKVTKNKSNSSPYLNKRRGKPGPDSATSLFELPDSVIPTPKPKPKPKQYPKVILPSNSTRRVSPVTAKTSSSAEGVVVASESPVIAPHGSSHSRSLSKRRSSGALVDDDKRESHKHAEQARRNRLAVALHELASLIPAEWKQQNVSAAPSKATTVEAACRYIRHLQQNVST
Oligonucleotide	fluorescence intensity [a.u.]
CGAATGCTCTTGAGCATCGTGGCCGTCACCCGGTATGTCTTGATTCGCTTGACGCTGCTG	8930
TCTTCCAGCCTGGGTCCCGTGCGGAAGGGCGGCGGAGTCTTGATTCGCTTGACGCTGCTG	6850
AGAGGGCAGAATTTGTCCGTGCGGACATTTGCCTGTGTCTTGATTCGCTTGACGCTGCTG	4810
CATACCCAACCTTGACCGGTGGGTGAAGATATTTGTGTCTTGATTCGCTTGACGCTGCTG	4140
CGTTCGTAATGCCAACACGATGCAGACCTGAGCCTAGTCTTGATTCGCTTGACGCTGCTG	9400
CGTCCTAGCGATTGATAAGTGGGTGCCATGAGGAAGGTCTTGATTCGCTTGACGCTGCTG	6720
ACATAGTAGGAAAATAATGTGCGTAGAATGATAAGAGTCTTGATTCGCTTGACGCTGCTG	5870
ATCATCGTAGATACCCACGTATAAATCAGTAACGCCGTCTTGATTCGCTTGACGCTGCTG	7050
TCACCGGGTGCCGGCCACGCAATATATAAAACGGTAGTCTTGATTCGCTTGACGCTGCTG	6310
AGGTTTCCTTACTGGCACGTGCGGACCAAGCTCTACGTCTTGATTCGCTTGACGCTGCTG	21400
TTGCACTAGACGAGTCACGTGGCCGTTAATCCCCCGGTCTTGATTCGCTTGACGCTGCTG	16800
ACTCGGCTAGGTATCCCCGTGGATTTTTACCCAACAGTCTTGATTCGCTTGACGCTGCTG	7250
AAGGACATACACAACCACAGACAAGGTCATATCGCGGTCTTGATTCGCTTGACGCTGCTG	4900
AATAAAACAAGGCGCCATGTGACAGTTTCCAAAAGGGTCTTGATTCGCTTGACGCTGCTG	8990
TGCGCAACAACTTGGCCGGTGGGTGTATGTCTAGAAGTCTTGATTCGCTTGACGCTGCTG	4610
ATCAAGGCTGTTCACCACGCATCTGTTCAAATCAACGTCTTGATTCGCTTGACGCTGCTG	8600

Sample 4 — method: RNA Bind-n-Seq; form: RNA; medium: in vitro; concentration: 200 nM; setting: whole 134-nt RNA, ends assumed; with: 150 mM LiCl; reference: input library; reading: higher = stronger binding; library: 7-deaza-guanosine replaces G
Target: Ras GTPase-activating protein-binding protein 1, full length (G3BP1, Homo sapiens, UniProt Q13283)
UniProt Q13283, sequence (whole entry, looked up): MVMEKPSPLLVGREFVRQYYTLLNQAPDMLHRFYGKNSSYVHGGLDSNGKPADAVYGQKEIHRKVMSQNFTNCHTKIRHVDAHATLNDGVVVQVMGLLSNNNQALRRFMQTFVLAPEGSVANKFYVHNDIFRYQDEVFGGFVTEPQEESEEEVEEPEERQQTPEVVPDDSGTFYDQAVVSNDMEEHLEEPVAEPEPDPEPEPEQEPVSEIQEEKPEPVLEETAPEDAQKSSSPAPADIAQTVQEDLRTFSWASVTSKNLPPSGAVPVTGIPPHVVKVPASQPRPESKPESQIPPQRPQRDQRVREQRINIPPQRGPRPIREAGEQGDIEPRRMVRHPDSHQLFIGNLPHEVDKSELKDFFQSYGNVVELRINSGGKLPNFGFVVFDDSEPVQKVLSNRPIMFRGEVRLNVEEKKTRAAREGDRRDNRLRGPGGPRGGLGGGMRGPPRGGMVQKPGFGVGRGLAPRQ
Oligonucleotide	log2 enrichment
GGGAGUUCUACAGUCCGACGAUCGUCCUGUGCUACACAUCGUAUGUACCGAAUCGGGGUGGGGUUUGGGGUUUUUUUGGGGAAAGUAUUAUGUUACGCCGUUCGGAUCUGCACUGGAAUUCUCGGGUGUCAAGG	-0.305
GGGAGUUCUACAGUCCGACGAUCUAACUUUAGAGGAGGAUCUGAUGGAUAUGGCAGUGGACGUGGAUUUGGGGAUGGCUAUAAUGGGUAUGGAGGUGGACCUGGAGGUGGCAAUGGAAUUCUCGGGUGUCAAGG	0.0738
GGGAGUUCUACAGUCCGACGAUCACCAUGCAGGUGGGCAUCUUUGGGAAGUGGGGCAAGGAGGGGAUAGGGAGGGGGGUAACACUUUGGGAACAGGUGGUCCCAGGUCGUUUCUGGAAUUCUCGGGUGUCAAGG	0.442
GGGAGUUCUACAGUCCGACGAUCUUCCUCAAGUCCUGUGCUACACAUCGUAUGUACCGAAUCGUGUGUGUGUGUAAAGUAUUAUGUUACGCCGUUCGGAUCUGCACUUCCAGCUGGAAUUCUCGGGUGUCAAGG	0.534
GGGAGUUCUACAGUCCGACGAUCUCCUUUUUUUUUUUCUUUGAAUGUAUUUAUUUCUUGUAGUCUACUGGUGCUGUUGUGACGGAGAGCCAGACGUACAAAAACCGAGCUGGUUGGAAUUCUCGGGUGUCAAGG	1.13
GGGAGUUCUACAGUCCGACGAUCCAAGUCCUGUGCUACACAUCGUAUGUACCGAAUCGGAAAAAGGAAAAAGGAAAGGAAAGUAUUAUGUUACGCCGUUCGGAUCUGCACUUCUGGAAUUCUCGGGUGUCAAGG	-0.871
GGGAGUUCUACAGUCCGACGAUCCACAGACAACAAAAACCCACACAGACACAGAGGGAAGGGGUUGGGAUGGGGACAGGGUGCACAGCAGGGCGGGGUAGGACCCCAGCCCCUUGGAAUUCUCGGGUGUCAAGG	0.696
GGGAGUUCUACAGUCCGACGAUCAAGUCCUGUGCUACACAUCGUAUGUACCGAAUCAAAUUUAAAUUUAAAUUUUUAAAAAAGUAUUAUGUUACGCCGUUCGGAUCUGCACUUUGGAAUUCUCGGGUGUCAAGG	-2.34
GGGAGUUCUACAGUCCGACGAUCCCUGUGCUACACAUCGUAUGUACCGAAUCGGGUUUUUUUGGGUUUUUUUGGGUUUUUGGGAAAGUAUUAUGUUACGCCGUUCGGAUCUGCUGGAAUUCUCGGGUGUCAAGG	0.179
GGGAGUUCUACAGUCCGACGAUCUGGGAGGUGGAUUUUGUUUAUUUUUUUAGCUCAUUUCCAGGGGUGGGAAUUUUUUUUUAAUAUGUGUCAUGAAUAAAGGUGUUUUUGAAAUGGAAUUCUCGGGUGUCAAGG	0.146
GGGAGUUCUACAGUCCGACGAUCAGUCCUGUGCUACACAUCGUAUGUACCGAAUCAAAUUUUUUUAAACCCAAACCCAAAAAAGUAUUAUGUUACGCCGUUCGGAUCUGCACUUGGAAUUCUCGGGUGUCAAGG	1.18

Sample 5 — target: CCND2, cyclin fold, Cln2 fusion (human); method: yeast growth competition, sequencing; medium: yeast; setting: weak parent motif; reference: not given; reading: higher = stronger binding
Starting sequence: BRCA2 docking peptide (human); PSIKRNLLNEFDR
Variant	normalised enrichment score
R5K	0.125
L7R	0.608
K4H	0.111
S2E	-0.0845
P1I	0.256
R13Q	0.0437
S2V	0.0759
K4E	-0.117
N6D	0.068
N6M	-0.146
N6Q	-0.0857
N6L	-0.0547
N9A	0.203
P1F	-0.0109
I3K	0.67
R5G	-0.154
S2C	0.12
L8P	-0.09

Excerpt of the above (sample 3):
Oligonucleotide	fluorescence intensity [a.u.]
CGAATGCTCTTGAGCATCGTGGCCGTCACCCGGTATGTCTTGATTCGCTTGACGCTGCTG	8930
TCTTCCAGCCTGGGTCCCGTGCGGAAGGGCGGCGGAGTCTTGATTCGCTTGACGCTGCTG	6850
AGAGGGCAGAATTTGTCCGTGCGGACATTTGCCTGTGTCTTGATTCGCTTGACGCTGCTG	4810
CATACCCAACCTTGACCGGTGGGTGAAGATATTTGTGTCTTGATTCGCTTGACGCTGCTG	4140
